Measurements collected from several papers.
± marks the error that the study gave.
RNA demethylase ALKBH5: RNA demethylase ALKBH5 (Homo sapiens, UniProt Q6P6C2)
HDAC1: Histone deacetylase 1 (HDAC1, Homo sapiens, UniProt Q13547)
Urease: Urease (Canavalia ensiformis, UniProt P07374)
gyrA/gyrB: DNA gyrase (gyrA/gyrB, Escherichia coli, UniProt P0AES4+P0AES6)

CC[C@H](C)[C@H](NC(=O)[C@H](CCCCN)NC(=O)[C@H](CCC(N)=O)NC(=O)[C@H](CC(C)C)NC(=O)[C@@H](NC(=O)CNC(=O)[C@H](CCC(N)=O)NC(=O)[C@H](CCSC)NC(=O)[C@H](CC(C)C)NC(=O)[C@H](CC(=O)O)NC(=O)[C@H](CCCNC(=N)N)NC(=O)[C@H](CC(C)C)NC(=O)[C@H](C)NC(=O)[C@H](CCCNC(=N)N)NC(=O)[C@@H](NC(=O)[C@@H](NC(=O)[C@@H](N)[C@@H](C)O)C(C)C)[C@@H](C)O)[C@@H](C)CC)C(=O)O — IC50 (Type 3 secretion system chaperone PscG, with PscE (pscG, Pseudomonas aeruginosa, UniProt P95435); binding, fluorescence polarization; together with: fluorescent tracer of compound): 4.32 µM
Nc1ncnc2c1ncn2[C@@H]1O[C@H](CSCCNC(=O)NCCc2ccccc2)[C@@H](O)[C@H]1O — IC50 (RNA demethylase ALKBH5; RNA demethylase activity, inhibitor): > 50 µM
N=C(N)NCCC[C@@H]1NC(=O)[C@H](CCCCNC(=O)CC(CC(=O)NCCCCNC(=O)CCCCCCC(=O)NCCCC[C@H](NC(=O)N[C@@H](CCC(=O)O)C(=O)O)C(=O)O)NC(=O)CN2CCN(CC(=O)O)CCN(CC(=O)O)CCN(CC(=O)O)CC2)NC(=O)[C@@H](Cc2ccccc2)NC(=O)[C@H](CC(=O)O)NC(=O)CNC1=O (some centres unmarked) — IC50 (FOLH1 (Homo sapiens, UniProt Q04609); enzyme activity, inhibitor, fluorescence): 0.047 µM
N#Cc1ccc(NC(=O)c2cccnc2)cc1Cl — IC50 (EGFR (Homo sapiens, UniProt P00533, T790M); enzyme activity, inhibitor, ATP luminescence): < 50 µM
O=C(CCCCCCC(=O)Nc1ccccc1N=Nc1ccccc1)NO — IC50 (HDAC1; enzyme activity, inhibitor; trans isomer): 0.013 ± 0.003 µM
COc1c(OCCOCCOc2cccc(C(=O)C3CCN(CCc4ccc(F)cc4)CC3)c2OC)cccc1C(=O)C1CCN(CCc2ccc(F)cc2)CC1 — IC50 (HTR2A (Homo sapiens, UniProt P28223); phosphorylation in cells, antagonist): 0.298 µM
CCCC[C@H](NC(=O)[C@H](C)NC(=O)[C@H](CCC(=O)O)NC(=O)[C@H](Cc1ccccc1)NC[C@H](CC(C)C)NC(=O)[C@H](Cc1ccccc1)NC(=O)[C@@H](N)CCCNC(=N)N)C(=O)O — IC50 (Gag-Pol polyprotein, protease (gag-pol, Human immunodeficiency virus 1, UniProt P12497); enzyme activity, inhibitor, FRET; NL4-3 wild type): > 1 µM
CSc1ccc2c(c1)c(CCN)c(C)n2Cc1ccc(Cl)cc1 — IC50 (Phosphatidylinositol 3,4,5-trisphosphate 5-phosphatase 1, Ptase-C2 domains (INPP5D, Homo sapiens, UniProt Q92835); enzyme activity, inhibitor): 167 µM
CCCCCc1cc(O)c2c(c1)OC(C)(C)C1CCC(C(=O)OC3OC(C(=O)O)C(O)C(O)C3O)=CC21 (centres unmarked) — IC50 (Cytochrome P450 2B6 (CYP2B6, Homo sapiens, UniProt P20813); inhibitor; HEK cell microsomes; 30 min preincubation without NADPH): 5.1 ± 1.6 µM
CC(C)(C)c1ccc(NC(=O)NCCC[C@H](CNCc2ccccc2)C[C@H]2O[C@@H](n3cnc4c(N)ncnc43)[C@H](O)[C@@H]2O)cc1 — IC50 (RNA demethylase ALKBH5; RNA demethylase activity, inhibitor): > 50 µM
CC(=O)N[C@@H](Cc1ccccc1)C(=O)N[C@@H](CC(C)C)C(=O)N[C@H](C(=O)N[C@@H](CC(=O)O)C(=O)CCl)[C@@H](C)O — IC50 (Caspase-4 (CASP4, Homo sapiens, UniProt P49662); enzyme activity, inhibitor, fluorescence): > 100 µM
N[C@H](C(=O)N1CCCC1)C1CCN(c2nccc3c(-c4ncc(Cl)cc4Cl)cccc23)CC1 — IC50 (PADI1 (Homo sapiens, UniProt Q9ULC6); enzyme activity, inhibitor, absorbance): 0.109 µM
CC(=O)CCC1C(=O)NC(C(C)C)C(=O)NC(Cc2cccc(O)c2)C(=O)N2CCCC(N2)C(=O)OC(C(C)=CC=CC(=O)N2CCCCO2)CC=CC=CC(O)C(C)C1O (centres unmarked) — IC50 (ABCC2 (Homo sapiens, UniProt Q92887); efflux transport, inhibitor; membrane vesicles; together with: estradiol 17β-glucuronide 1 µM): > 50 µM
O=C1c2ccc(O)c(O)c2C(=O)N1Cc1ccc(F)c(Cl)c1 — IC50 (Gag-Pol polyprotein, integrase (gag-pol, Human immunodeficiency virus 1, UniProt P12497); 3'-processing, inhibitor, gel-based; recombinant wild-type integrase): 24.2 ± 2.8 µM
N=C(N)NCCC[C@H](N)C(=O)N1CCC[C@H]1C(=O)N1CCC[C@H]1C(=O)NCC(=O)N[C@@H](Cc1ccccc1)C(=O)N[C@@H](CO)C(=O)N1CCC[C@H]1C(=O)N[C@@H](Cc1ccccc1)C(=O)N[C@@H](CCCCN)C(=O)O — IC50 (BDKRB2 (Homo sapiens, UniProt P30411)): 0.0016 µM
NC(=O)Cn1c(-c2cccs2)noc1=O — IC50 (Urease; enzyme activity, inhibitor, absorbance): 0.42 µM
CC[C@@H]1NC(=O)[C@H]([C@H](O)[C@H](C)Cc2nc3ccc(C(=O)c4ccccc4)cc3[nH]2)N(C)C(=O)[C@H](C(C)C)N(C)C(=O)[C@H](CC(C)C)N(C)C(=O)[C@H](CC(C)C)N(C)C(=O)[C@@H](C)NC(=O)[C@H](C)NC(=O)[C@H](CC(C)C)N(C)C(=O)[C@H](C(C)C)NC(=O)[C@H](CC(C)C)N(C)C(=O)CN(C)C1=O — IC50 (PPIA/Calcineurin subunit B type 1/PPP3CA (Homo sapiens, UniProt P62937+P63098+Q08209); enzyme activity, inhibitor): ~10 µM
CN(Cc1ccccc1)CP(=O)(O)O — IC50 (Urease; inhibitor; pH 7): > 1000 µM
CC(C)[C@H](NC(=O)c1ccc(CNc2nc3c(c(=O)[nH]2)CCC3)cc1)C(=O)NC1COC1 — IC50 (MMP1 (Homo sapiens, UniProt P03956); enzyme activity, inhibitor): > 5 µM
CC(C)P(=[Se])(NP(=[Se])(C(C)C)C(C)C)C(C)C — IC50 (Alpha-amylase (Bacillus subtilis, UniProt P00691); enzyme activity, inhibitor, absorbance; pH 6.9): 372 µM
CC(C)[C@H](NC(=O)N[C@H](C(=O)N[C@H]1/C=C/CCNC(=O)/C=C/[C@H](C(C)C)NC1=O)C(C)C)C(=O)O — IC50 (Proteasome subunit beta type-10, trypsin-like site (Homo sapiens, UniProt P40306); enzyme activity, inhibitor, fluorescence): 0.67 µM
F[P-](F)(F)(F)(F)F.OCP(CO)CO.OCP(CO)CO.OCP(CO)CO.OCP(CO)CO.[Cu+] — IC50 (PSMB6/PSMB5/PSMB7 (Homo sapiens, UniProt P28072+P28074+Q99436); proteasome CT-L activity, inhibitor; LoVo; 24 h): 31 µM
COc1ccc(CCNc2cc(-c3ccccc3)nc3ncnn23)cc1 — IC50 (Cytochrome P450 2D6 (CYP2D6, Homo sapiens, UniProt P10635)): > 50 µM
CCNCCN(C)c1ccc(Nc2cc(NC3CC3)n3ncc(C#N)c3n2)cc1NC(=O)CC — IC50 (CSNK2A2 (Homo sapiens, UniProt P19784); target engagement in cells, BRET): 0.126 µM
Nc1nc2c(c(=O)[nH]1)[n+](Cc1cccc(S(=O)(=O)F)c1)cn2[C@@H]1O[C@H](COP(=O)(O)O)[C@@H](O)[C@H]1O — IC50 (NT5C3B (Homo sapiens, UniProt Q969T7); enzyme activity, inhibitor, absorbance; pH 7.5): > 50 µM
CCC(CC)OC1C=C(C(=O)OC(C)OC(=O)C(N)C(C)CC)CC(NC(=N)N)C1NC(C)=O (mixture of isomers) — IC50 (SLC15A1 (Homo sapiens, UniProt P46059); transporter uptake, inhibitor, radiometric; pH 6): < 1000 µM
O=C(Nc1ccccc1)c1ccccc1O — IC50 (HDAC1; enzyme activity, inhibitor, fluorescence): > 10 µM
Cc1cc2c(C(=O)Cc3ccccc3)c(O)c(O)cc2c(O)c1-c1c(C)cc2c(C(=O)Cc3ccccc3)c(O)c(O)cc2c1O — IC50 (MCL1 (Homo sapiens, UniProt Q07820); ligand displacement, FP): 0.52 µM
CN(C)c1ccc(C(=O)NCc2ccc(CNC(=O)CS)cc2)cc1 — IC50 (HDAC10 (Homo sapiens, UniProt Q969S8); enzyme activity, inhibitor): > 30 µM
Cc1cc(S(=O)(=O)Nc2ncccn2)c(F)cc1N(C)C1CCN([C@H](C)c2ccccc2)CC1 — IC50 (SCN8A (Homo sapiens, UniProt Q9UQD0); tonic ion current block, inhibitor, patch clamp; held at V0.5, first pulse): 0.196 µM
CC[C@H](C)[C@H](NC(=O)[C@H](CCCNC(=N)N)NC(=O)[C@H](CCCNC(=N)N)NC(=O)[C@@H]1CCCN1C(=O)[C@@H]1CCCN1C(=O)[C@H](CCCNC(=N)N)NC(=O)[C@@H]1CCCN1C(=O)[C@H](CCCNC(=N)N)NC(=O)[C@@H]1CCCN1C(=O)[C@H](CC(C)C)NC(=O)[C@H](Cc1ccc(O)cc1)NC(=O)[C@@H]1CCCN1C(=O)[C@@H]1CCCN1C(=O)[C@H](CCCCN)NC(=O)[C@H](CC(=O)O)NC(=O)[C@@H](NC(=O)c1cn(C2CC2)c2cc(N3CCNCC3)c(F)cc2c1=O)C(C)C)C(=O)N[C@@H](Cc1ccc(O)cc1)C(=O)N[C@@H](CC(N)=O)C(=O)N[C@@H](CCCNC(=N)N)C(N)=O — IC50 (gyrA/gyrB; enzyme activity, inhibitor): > 10 µM
O=C1C(O)=C(Nc2ccccc2Cl)C(=O)c2ccccc21 — IC50 (DHODH (Homo sapiens, UniProt Q02127); enzyme activity, inhibitor, absorbance): 0.68 µM
COc1ccccc1-c1nc2sc3c(c2c(=O)o1)CCC3 — IC50 (Procathepsin L (CTSL, Homo sapiens, UniProt P07711); enzyme activity, inhibitor, FRET): > 100 µM
CCCC[C@H](NC(=O)[C@H](Cc1ccccc1)NC(=O)CNC(=O)[C@@H](C)NC(=O)[C@@H](N)Cc1ccc(O)cc1)C(=O)N1CCC[C@H]1C(=O)N[C@@H](CC(C)C)C(=O)N[C@@H](CO[C@@H]1O[C@H](CO)[C@@H](O)[C@H](O)[C@H]1O)C(=O)N[C@@H](Cc1c[nH]c2ccccc12)C(=O)NCc1cc(C(F)(F)F)cc(C(F)(F)F)c1 — IC50 (TACR1 (Homo sapiens, UniProt P25103); ligand displacement, radioligand): 0.000117 µM
CC[C@H](C)[C@H](N)C(=O)N[C@@H](CS)C(=O)N[C@@H](Cc1ccccc1)C(=O)N[C@@H](CC(C)C)C(=O)N[C@@H](Cc1c[nH]cn1)C(=O)N[C@@H](Cc1ccc(O)cc1)C(=O)N[C@@H](CC(=O)O)C(=O)N[C@@H](Cc1ccccc1)C(=O)N[C@@H](Cc1ccc(O)cc1)C(=O)O — IC50 (APOBEC3G (Homo sapiens, UniProt Q9HC16); deamination activity, inhibitor, PCR/StuI restriction; pH 7.4, 37 °C, together with: ssDNA substrate 1 fmol/µL): > 100 µM
CNC(=O)C1OC(n2cnc3c(NCc4cccc(I)c4)ncnc32)C(O)C1O (centres unmarked) — IC50 (SLCO1B1 (Homo sapiens, UniProt Q9Y6L6); transport, inhibitor; 10 (unit not given), pre-incubation, together with: estrone-3-sulfate): 17 ± 0.1 µM
CCC(C)C1NC(=O)C(Cc2ccccc2)NC(=O)C(CCCCCC(=O)C2CO2)NC(=O)C2CCCCN2C1=O (centres unmarked) — IC50 (Histone deacetylase (Plasmodium falciparum 3D7, UniProt Q7K6A1); enzyme activity, inhibitor): 0.0011 µM
CC1C(=NNC(=O)c2ccncc2)C(C)C(c2ccc(Cl)cc2)OC1c1ccc(Cl)cc1 (centres unmarked) — IC50 (gyrA/gyrB): 15.4 µM
